Results pooled from the literature.
A part holds a random share of what one study measured.

Study 1
Target: Histone acetyltransferase KAT6A, winged helix 2, GST fusion (KAT6A, Homo sapiens, UniProt Q92794, residues 85-181)
Technique: protein binding microarray
Form: double-stranded DNA, one strand shown
Sample: in vitro
Tested at: not given
Setting: 8-mer, flanks averaged, mean of 2 arrays, mostly near background
Reference: not given
Direction: higher = stronger binding
Residues (chain): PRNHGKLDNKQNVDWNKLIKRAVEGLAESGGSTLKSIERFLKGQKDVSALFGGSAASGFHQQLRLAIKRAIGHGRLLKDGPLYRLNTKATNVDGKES
Oligonucleotide | E-score
CCCCAGCC | 0.0864
AGGGCCAG | 0.052
CCAGCTCG | -0.0601
GGCCCACC | 0.182
GGAGGCGA | 0.0222
ACCGCCCG | 0.192
GGGCGGCA | 0.204
CATTAAGA | -0.181
AGGGAACC | 0.0234
AGTATCTA | -0.137
GCTCATCC | -0.0264
CCTCGTAC | -0.199
AATATGCC | -0.0561
AAAGCCTG | -0.104
CTAGGTCC | 0.0167
ATCTCTTA | -0.179
GGACTGAC | -0.145
CTGATGTC | -0.00893
CGAGGTCA | 0.111
ACGCCCCC | 0.0208
AAAACGAG | 0.061
CCTAAGCC | -0.0373

Study 2
Target: Fragile X messenger ribonucleoprotein 1, C-terminal low-complexity region (Fmr1, Mus musculus, UniProt P35922)
Technique: RNA Bind-n-Seq
Form: RNA
Sample: in vitro
Tested at: 200 nM
Setting: whole 134-nt RNA, ends assumed
Together with: 150 mM KCl
Reference: input library
Direction: higher = stronger binding
All sequences stand within: GGGAGUUCUACAGUCCGACGAUC … UGGAAUUCUCGGGUGUCAAGG
Oligonucleotide | log2 enrichment
UCCUGUGCUACACAUCGUAUGUACCGAAUCGGAAAAAAGGGAAAAAAGGGAAAAAAGGGGAAAGUAUUAUGUUACGCCGUUCGGAUCUGC | -0.441
AAGUCCUGUGCUACACAUCGUAUGUACCGAAUCAAAUUUAAACCCCCAAAUUUAAAAAAGUAUUAUGUUACGCCGUUCGGAUCUGCACUU | 0.159
UGGCCCUGGUGGCAUGCGGGGAGGAAGAGGUGGCCUCAUGGAUCGUGGUGGUCCCGGUGGAAUGUUCAGAGAUGGCCGUGGUGGAGACAG | 0.223
ACCAUGCAGGUGGGCAUCUUUGGGAAGUGGGGCAAGGGGGGGAUAGGGAGGCGGGUAACACUUUGGGAACAGGUGGUCCCAGGUCGUUUC | 0.736
UCCUGUGCUACACAUCGUAUGUACCGAAUCGGGGAAAGGGGAAAGGGGAAAAAAAGGGGAAAGUAUUAUGUUACGCCGUUCGGAUCUGCA | 0.336
CAAGUCCUGUGCUACACAUCGUAUGUACCGAAUCGGGUUUUGGGUUUUGGUUUUGGAAAGUAUUAUGUUACGCCGUUCGGAUCUGCACUU | -0.686
CCUCAAGUCCUGUGCUACACAUCGUAUGUACCGAAUCGGAGGGGAGGAGGGGAAAGUAUUAUGUUACGCCGUUCGGAUCUGCACUUCCAG | 0.448
GUCCUGUGCUACACAUCGUAUGUACCGAAUCGGGGAAAAAGGAAAAAGGGGAAAAAGGGAAAGUAUUAUGUUACGCCGUUCGGAUCUGCA | 0.0159
AGUCCUGUGCUACACAUCGUAUGUACCGAAUCGGGGCCCCCGGCCCCCGGGCCCCCGGAAAGUAUUAUGUUACGCCGUUCGGAUCUGCAC | -0.694
CAAGUCCUGUGCUACACAUCGUAUGUACCGAAUCGGCCCGGGGCCCGGGGCCCGGGAAAGUAUUAUGUUACGCCGUUCGGAUCUGCACUU | -0.463
AGUCCUGUGCUACACAUCGUAUGUACCGAAUCGGGUUUGGGAAAGGGUUUUUUUGGGAAAGUAUUAUGUUACGCCGUUCGGAUCUGCACU | 0.381
UUUGCUGUUGUUAACCAUCAAGGGACCUUGGAGAGUGGCCACUACACCAGCUUUAUCCGGCAGCACAAAGACCAGUGGUUCAAGUGUGAC | -1.1
CAAGUCCUGUGCUACACAUCGUAUGUACCGAAUCGGGUUUGGGUUUGGGAAAGGGAAAGUAUUAUGUUACGCCGUUCGGAUCUGCACUUC | 0.896
CCUGUGCUACACAUCGUAUGUACCGAAUCGUGUGUGUGUGUGUGUGUGUGUGUGUGUGUGUAAAGUAUUAUGUUACGCCGUUCGGAUCUG | 0.656

Study 3
Target: Interferon regulatory factor 5, full length, phosphomimetic (IRF5, Homo sapiens, UniProt Q13568-2, residues 1-514, S451D/S453D/S456D/S462D)
Technique: protein-binding microarray
Form: double-stranded DNA, one strand shown
Sample: in vitro
Tested at: 940 nM top
Setting: 60-bp whole probe
Together with: salmon DNA 0.4 mg/ml
Reference: random background probes
Direction: higher = stronger binding
All sequences stand within: GCCTAGCAC … GTCTTGATTCGCTTGACGCTGCTG
Oligonucleotide | fitted relative affinity
TCATTGGTTGAACATGAACTGTGCTAG | 0.0418 z-score
ATCTTAATAAGGTTTCCAATCGTGCTA | 0.209 z-score
TTAGGTCTCGGCCTGGGTTAGTGCTAG | 1.89 z-score
TCCTCTCTGCCACTCAGGTAGTGCTAG | 1.5 z-score
TTAGGTATCGACCCTGGGTTAGTGCTA | 4.32 z-score
TTAGATATCAGTTTCCATTAGTGCTAG | 1.38 z-score
AACGGTATCGGTATCGGGACGTGCTAG | 9.03 z-score
AACGGACTGGGTATCGGGACGTGCTAG | 0.619 z-score
TTAGGACTGGGACTGGGTTAGTGCTAG | -0.4 z-score
TTAGGACTGCTAATCCTTTAGTGCTAG | -0.55 z-score
TTAGGACTGGGGTTCCGGTTAGTGCTA | 0.317 z-score
TCAAGTCTTCTCCTCTAACTGTGCTAG | 0.739 z-score
TTAGGTATCCTATTCCTTTAGTGCTAG | -0.0851 z-score
TTAGGTTTCCTACTGCTCTAGTGCTAG | 0.796 z-score
GACAAACTGAGTCTCGAGACGTGCTAG | 0.882 z-score
GACGGGTCCGGTTTCGGGACGTGCTAG | 3.26 z-score
TACGGTTTCGGTTTCGGGACGTGCTAG | 12.2 z-score
GACGGTATCGGAGTGGGGACGTGCTAG | 2.03 z-score
GACGGACTGGGTTTCGGGAGGTGCTAG | 2.18 z-score
ACCCCAAAGAGGGGCAGTGTGTGCTAG | -0.339 z-score
TTAGATGTCAGTTCCGATTAGTGCTAG | 0.932 z-score
GACGATCTCAGAATCGAGACGTGCTAG | 0.0384 z-score
TTCTACTTCTCTTTTTGCTTGTGCTAG | 2.26 z-score
GACGGTTTACTACTGCTGACGTGCTAG | -0.144 z-score

Study 4
Target: RNA binding protein fox-1 homolog 2, RRM domain, GST-SBP tag (RBFOX2, Homo sapiens, UniProt O43251-10, residues 100-194)
Technique: RNA Bind-n-Seq
Form: RNA
Sample: in vitro
Tested at: 365 nM
Setting: natural RNA segment, single round, ends assumed
Reference: no-protein control
Direction: higher = stronger binding
All sequences stand within: GGGAGUUCUACAGUCCGACGAUC … UGGAAUUCUCGGGUGCCAA
Construct (chain): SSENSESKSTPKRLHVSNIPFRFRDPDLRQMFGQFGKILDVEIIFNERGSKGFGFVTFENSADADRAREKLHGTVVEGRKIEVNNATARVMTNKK
Oligonucleotide | RBNS enrichment (R)
AAGAACAAAAACUGUAGUGUUUCACCUUUAAAUGCAGUGUUGAAGAGGGAGCCUUUCUCUAAGCCCUGCACUAACCCACUCCUCCCAAGACUCUUGUGGAGUGACAGUUC | 0.212
GACAAACCUCUGCUGCUUCCCUCUUGGAGGAUACAGUAAUACCAGAGUGUGGAGAUCAGUAACCAUAUCCUGAGGAAAGUGGUGAUUCCCCUGCUAGAUGAUUCACCCAC | 0.57
AUUUCUACUCAACUACAAAGAUUUAUUUAAUGUACUCUUAAUCUAACUGAGUUUUGUUACCAAUGACCUGUUGCAUGCUUCAAUACCGUGUACUGCCUGAGUUGUGCCUC | 2.78
AUCCACAGCCCAAGGGCGGGGCUAUGCCUUGUCUGGGGACCCUGUAGAGUCACUGACCCUGGAGCGGCUCUCCUGAGAGGUGCUGCAGGCAAAGUGAGACUGACACCUCA | 0.173
UGAUGUCGCAUUAUAAAGACAUGCAUAAUUGAUGGUUUCUAGAUUAUCUAGUCCAAACAAUAGAGUUUAUUUUUUCUUCAUCUGAACCAACAUGCUACAGUAGCUAAGAA | 0.426
CUCUAACCCUGCUCCUUCCUAGCACAGCUCUGCACAUCCAUCUCUCUCUCUUGCUGAAUGCACAUAUGUGCACACAUGUCAGCAUGUGCAUGCUCACUCCCCCACUUCUC | 2.55
AUAUCUCUUUCACUUCCUCCCCAGCUGCCAAAUGGGGAUAAAUAAUCUUACCUACCUCCUGGGGGGGGGGGAGUUCUGAGAACGAAGUCAUUCUUAGUGUUCAGGUGCUA | 0.282
ACAUCUUUUAAAUUAAGCCACUGUGCUGCCUUAGAUUCCGUGGGUCAUGAGCCAUGAGUCCUGGGACAUCUGAGGAUUGGGAUUCUUUGUUCACCCCGCAGAUAGUUAAU | 0.384
CUGGGCUAGAGAGUGAGUUAUUGCUCACUCUGAGUUCUGCGCUACUCUGGGGGACUCUGUUUCAAGGGGAAAAAAAGAACAGAGUCUGACUGCUUGGCUACGUACAGUAU | 0.6
CCUGAGAGUCGAAUUCUUCUCUUCCCUAACCAAUGAAGCUAAGUGGUUAUCCCAGAAACUUGUCUUCUAAAAGGGAGGACUCCAGGCCAUCAAUAAAGAUGUCCAGGCAG | 0.232
ACAUUGAUCUAGAUCUGCCUUUAUCCACUCGAAUUAUAAACAGCUCGGCUUGUCCUUGUCCCAUGUGUUUGUAGACACACAUGCAUACUGUCCAAAGAUUAGGGUUGGUG | 0.268
AAGGAUGCAAAUAGCCGUCUGCGAUUUUGGCGGCCCUCCGGAUUGUGGUGACAAUAUGUUGUACCCGGACAUUCCCAAAUUUAAAUUUGGCAGUGAAAAUUCCACAAAGA | 0.333

Study 5
Target: Protein C-ets-1 (ETS1, Homo sapiens, UniProt P14921, residues 1-441, full length assumed)
Chain of UniProt P14921 (whole entry, looked up): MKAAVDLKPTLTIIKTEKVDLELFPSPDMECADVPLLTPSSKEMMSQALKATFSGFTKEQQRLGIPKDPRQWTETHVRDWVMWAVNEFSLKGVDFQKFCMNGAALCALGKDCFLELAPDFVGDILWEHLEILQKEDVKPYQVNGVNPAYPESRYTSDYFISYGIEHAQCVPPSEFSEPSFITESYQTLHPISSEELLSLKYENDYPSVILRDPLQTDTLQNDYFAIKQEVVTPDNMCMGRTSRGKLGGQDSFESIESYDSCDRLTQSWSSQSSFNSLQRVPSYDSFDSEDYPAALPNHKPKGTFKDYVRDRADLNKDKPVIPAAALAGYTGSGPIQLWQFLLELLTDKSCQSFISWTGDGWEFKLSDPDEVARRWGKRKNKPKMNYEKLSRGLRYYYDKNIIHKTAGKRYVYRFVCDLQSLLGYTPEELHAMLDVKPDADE
Technique: protein-binding microarray
Form: double-stranded DNA, one strand shown
Sample: in vitro
Tested at: not given
Setting: k-mer, scored over probes, only values ≥0.25
Direction: higher = stronger binding
Oligonucleotide | E-score
CATCCGTA | 0.412
CGGGCGGA | 0.38
GCGGGAAA | 0.367
AGCATCCC | 0.255
GGAACGGA | 0.316
GGGCGGGA | 0.36
ACCGGGGG | 0.33
CTAACTTC | 0.255
CAACAGGA | 0.403
ATTTCCTG | 0.478
ACATCCGA | 0.432
ATATCCGG | 0.485
CCCGGACA | 0.358
GAAACTTC | 0.336
AGGAAAAG | 0.257
ACCGGGAT | 0.368
CCCACCGG | 0.308
AGGATGCC | 0.372
GGAAGTTA | 0.448
GGTAGGAA | 0.347
CCACTTCC | 0.468
AAACTTCC | 0.459
GAAAGGTC | 0.252
CACCGGTA | 0.314
CGGAAGAG | 0.447

For quick reference, copied from above (study 3):
Oligonucleotide | fitted relative affinity
TTAGATATCAGTTTCCATTAGTGCTAG | 1.38 z-score
AACGGTATCGGTATCGGGACGTGCTAG | 9.03 z-score
AACGGACTGGGTATCGGGACGTGCTAG | 0.619 z-score
TTAGGACTGGGACTGGGTTAGTGCTAG | -0.4 z-score
TTAGGACTGCTAATCCTTTAGTGCTAG | -0.55 z-score
TTAGGACTGGGGTTCCGGTTAGTGCTA | 0.317 z-score
TCAAGTCTTCTCCTCTAACTGTGCTAG | 0.739 z-score
TTAGGTATCCTATTCCTTTAGTGCTAG | -0.0851 z-score
TTAGGTTTCCTACTGCTCTAGTGCTAG | 0.796 z-score
GACAAACTGAGTCTCGAGACGTGCTAG | 0.882 z-score
